Measured values collected from several papers.
Each line is one published result; not all experiments were run side by side. Several values in a cell are separate wells, animals, samples, runs or records. ± marks the error that the study gave.
UniProt P08684, sequence (whole entry, looked up): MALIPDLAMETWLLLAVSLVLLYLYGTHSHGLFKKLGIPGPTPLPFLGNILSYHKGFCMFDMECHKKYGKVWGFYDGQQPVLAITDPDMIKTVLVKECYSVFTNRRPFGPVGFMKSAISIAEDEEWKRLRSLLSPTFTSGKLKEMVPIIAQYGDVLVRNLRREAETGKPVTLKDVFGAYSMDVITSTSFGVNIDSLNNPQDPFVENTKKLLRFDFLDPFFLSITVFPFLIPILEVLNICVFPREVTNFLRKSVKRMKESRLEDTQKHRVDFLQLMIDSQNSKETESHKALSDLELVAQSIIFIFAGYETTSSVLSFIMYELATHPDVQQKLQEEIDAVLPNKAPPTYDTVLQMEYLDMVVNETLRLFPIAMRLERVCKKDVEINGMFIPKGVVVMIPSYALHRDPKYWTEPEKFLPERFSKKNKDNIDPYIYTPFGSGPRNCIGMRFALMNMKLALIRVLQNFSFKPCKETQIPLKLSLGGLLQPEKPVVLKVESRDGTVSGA
UniProt P08183, sequence (whole entry, looked up): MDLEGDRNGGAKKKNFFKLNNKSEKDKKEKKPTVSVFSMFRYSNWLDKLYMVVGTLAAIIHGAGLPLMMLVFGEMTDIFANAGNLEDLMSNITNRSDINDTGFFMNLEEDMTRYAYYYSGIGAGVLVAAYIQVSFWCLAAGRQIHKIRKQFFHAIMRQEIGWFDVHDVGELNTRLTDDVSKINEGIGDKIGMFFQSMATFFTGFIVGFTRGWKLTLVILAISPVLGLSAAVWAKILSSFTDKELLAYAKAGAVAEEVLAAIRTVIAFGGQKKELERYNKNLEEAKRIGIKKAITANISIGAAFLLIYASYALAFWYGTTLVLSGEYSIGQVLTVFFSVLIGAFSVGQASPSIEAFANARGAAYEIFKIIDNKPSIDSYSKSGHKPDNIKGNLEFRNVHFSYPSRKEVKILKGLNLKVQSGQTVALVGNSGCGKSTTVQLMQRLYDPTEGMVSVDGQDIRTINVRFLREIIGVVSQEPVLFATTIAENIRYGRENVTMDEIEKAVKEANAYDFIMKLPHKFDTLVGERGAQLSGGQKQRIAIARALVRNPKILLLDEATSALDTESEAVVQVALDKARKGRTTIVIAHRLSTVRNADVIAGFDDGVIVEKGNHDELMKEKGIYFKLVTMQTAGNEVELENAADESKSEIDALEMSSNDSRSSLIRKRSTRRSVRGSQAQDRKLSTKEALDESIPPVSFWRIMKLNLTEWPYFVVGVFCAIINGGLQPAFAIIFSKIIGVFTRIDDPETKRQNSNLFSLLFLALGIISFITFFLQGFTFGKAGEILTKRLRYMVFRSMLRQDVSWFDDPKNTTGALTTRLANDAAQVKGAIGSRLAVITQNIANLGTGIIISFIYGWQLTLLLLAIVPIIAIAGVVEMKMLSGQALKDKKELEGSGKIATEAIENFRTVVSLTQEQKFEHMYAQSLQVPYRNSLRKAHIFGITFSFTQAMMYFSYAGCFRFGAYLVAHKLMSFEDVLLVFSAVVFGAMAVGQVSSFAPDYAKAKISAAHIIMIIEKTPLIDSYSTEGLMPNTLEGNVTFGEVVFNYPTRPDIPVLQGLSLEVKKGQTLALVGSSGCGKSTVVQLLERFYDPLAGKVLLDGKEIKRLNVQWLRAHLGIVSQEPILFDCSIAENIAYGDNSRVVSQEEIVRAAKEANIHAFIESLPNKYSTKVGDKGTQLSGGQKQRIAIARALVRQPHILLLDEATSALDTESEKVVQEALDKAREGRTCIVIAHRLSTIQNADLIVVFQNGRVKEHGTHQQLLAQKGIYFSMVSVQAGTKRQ

CC(=O)OCC1=C[C@@H]2OC(=O)C3=CO[C@@H](O[C@@H]4O[C@H](CO)[C@@H](O)[C@H](O)[C@H]4O)[C@H]1[C@@H]32  CYP1A1 induction (BEAS-2B; enzyme activity, inducer, fluorogenic substrate imaging; 10 µM, 24 h; reference: control): 1.05 fold
Cc1cc(C(=O)NC(C)(C)COc2cccc3c2C(N)=NS(=O)(=O)N3)cc(C)n1  cytotoxicity (human peripheral blood lymphocytes; CBPI, preliminary test; 60 µg/mL, 4 h, added: rat liver S9; reference: vehicle control): 9%
CC1(C)CCC2(CC1)N[C@@H](C(=O)N[C@@H]1CC[C@@H](C(N)=O)OC1)[C@H](c1ccnc(Cl)c1F)[C@]21C(=O)Nc2cc(Cl)ccc21  Papp A to B (ABCB1 (Homo sapiens, UniProt P08183); Caco-2 monolayers; 10 µM, 120 min, no inhibitor): 1.86 ×10⁻⁶ cm/s
C[Si]1(C)O[Si](C)(C)O[Si](C)(C)O[Si](C)(C)O[Si](C)(C)O1  bioconcentration factor (Oncorhynchus mykiss; extrapolated from liver S9; concentration not given, lipid-normalized, total): 47300 L/kg lipid and 71300 L/kg lipid
CC(C)(c1ccc(O)cc1)c1ccc(O)cc1  viable cells (HepG2 spheroids, dissociated; annexin V-FITC/PI flow cytometry; 10 µM, 24 h): 66.4 ± 8.52%
Cc1c(O)c(C)c2c(c1O)C(=O)C[C@@H](c1ccc(O)cc1)O2  CYP1A1 induction (BEAS-2B; enzyme activity, inducer, fluorogenic substrate imaging; 10 µM, 24 h; reference: control): 1.43 fold
CC[C@H]1[C@@H](O)[C@@H]2[C@H](CC[C@]3(C)[C@@H]([C@H](C)CCNC(=O)NS(=O)(=O)c4ccc(C(C)(C)C)cc4)CC[C@@H]23)[C@@]2(C)CC[C@@H](O)C[C@@H]12  Cmax mean (Cytochrome P450 3A4 (CYP3A4, Homo sapiens, UniProt P08684); human, plasma; dose not given, compound alone): 33.9 ng/mL
C=C(NC(=O)c1nccc(OC)c1O)C(=O)O[C@@H](C)[C@H](OC(=O)C(C)C)[C@@H](Cc1ccccc1)C(=O)O  NOEC (Pseudokirchneriella subcapitata; growth; concentration not given, 72 h, static test): 10000 µg/L
CC[C@H](CO)N(CCN(N=O)[C@H](CC)CO)N=O  revertant colonies per plate (Salmonella typhimurium; mutagenicity, Ames plate incorporation; TA1537; 1500 µg/plate, without S9, methanol): 16 ± 2
Cc1cc(N)c2c(OCC(C)(C)C(=O)NC(C)C)cccc2n1  mean revertant colonies (Salmonella typhimurium; reverse mutation, plate incorporation; TA98; 100 µg/plate, with rat liver S9): 15 colonies/plate
CC(=O)Nc1cccc(-n2c(=O)n(C3CC3)c(=O)c3c(Nc4ccc(I)cc4F)n(C)c(=O)c(C)c32)c1  viability (NCI-H2087 (BRAF L597V); concentration not given, 72 h, unit not given; reference: DMSO): 0.929 and 0.873 and 0.431 and 0.428 and 0.562
C[Si](C)(C)O[Si](C)(C)O[Si](C)(C)C  hepatic intrinsic clearance kmet,int (Oncorhynchus mykiss; IVIVE from liver S9): 182000 h⁻¹ and 162000 h⁻¹ and 183000 h⁻¹
C[C@H]1CN(C2COC2)CCN1c1ccc(Nc2cc(-c3ccnc(N4CCn5c(cc6c5CC(C)(C)C6)C4=O)c3CO)cn(C)c2=O)nc1  remaining compound (human CYP3A4/5; human liver microsomes; 1 µM, 60 min, pH 7.4, added: troleandomycin 20 µM, NADPH; reference: 0 min): 96.3 ± 14.4%
N#Cc1ccc2c(c1)[C@H]1CCCN(C(=O)c3ccc4[nH]cnc4c3)[C@H]1C2  cortisol level change (human; 240 mg, day 7; reference: baseline): -103 nmol/L
Cc1cc(Nc2ccc(S(F)(F)(F)(F)F)cc2)n2nc(C(C)(F)F)nc2n1  patients with QTcF above threshold (Plasmodium falciparum; 12-lead Holter ECG; human malaria patients; oral, 400 mg, QTc above 500 ms): 0%
CC(C)(C(=O)N1CCOc2c(C#N)cncc2C1)C(F)F  subjects with adverse event (refers to: Lymphadenopathy; human; oral, 15 mg twice daily, 14 days, multiple ascending dose): 12.5%

A few entries again:
C[Si]1(C)O[Si](C)(C)O[Si](C)(C)O[Si](C)(C)O[Si](C)(C)O1  bioconcentration factor (Oncorhynchus mykiss; extrapolated from liver S9; concentration not given, lipid-normalized, total): 47300 L/kg lipid and 71300 L/kg lipid
Cc1cc(C(=O)NC(C)(C)COc2cccc3c2C(N)=NS(=O)(=O)N3)cc(C)n1  cytotoxicity (human peripheral blood lymphocytes; CBPI, preliminary test; 60 µg/mL, 4 h, added: rat liver S9; reference: vehicle control): 9%
